Published values from different studies.
Compare with care: the assays were run in different laboratories. ± marks the error that the study gave.
ISOC2: Isochorismatase domain-containing protein 2 (ISOC2, Homo sapiens, UniProt Q96AB3)
UniProt Q96AB3, sequence (whole entry, looked up): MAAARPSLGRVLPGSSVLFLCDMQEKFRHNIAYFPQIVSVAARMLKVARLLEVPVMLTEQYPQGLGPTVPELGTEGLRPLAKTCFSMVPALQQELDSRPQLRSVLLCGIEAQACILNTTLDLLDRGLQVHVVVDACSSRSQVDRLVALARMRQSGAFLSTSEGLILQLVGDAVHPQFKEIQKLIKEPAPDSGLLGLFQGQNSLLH
pufM QA site: Reaction center protein M chain, QA site (pufM, Cereibacter sphaeroides, UniProt P0C0Y9)
UniProt Q9X6J6, sequence (whole entry, looked up): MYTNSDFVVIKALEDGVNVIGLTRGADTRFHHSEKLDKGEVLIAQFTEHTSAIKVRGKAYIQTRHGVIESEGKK
UniProt P07451, sequence (whole entry, looked up): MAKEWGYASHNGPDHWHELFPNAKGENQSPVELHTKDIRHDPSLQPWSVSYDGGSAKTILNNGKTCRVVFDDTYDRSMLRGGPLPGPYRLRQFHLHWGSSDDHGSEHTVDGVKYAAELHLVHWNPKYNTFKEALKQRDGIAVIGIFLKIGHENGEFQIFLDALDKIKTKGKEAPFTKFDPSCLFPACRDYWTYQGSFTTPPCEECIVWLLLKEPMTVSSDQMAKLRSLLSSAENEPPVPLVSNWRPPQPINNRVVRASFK
UniProt P19793, sequence (whole entry, looked up): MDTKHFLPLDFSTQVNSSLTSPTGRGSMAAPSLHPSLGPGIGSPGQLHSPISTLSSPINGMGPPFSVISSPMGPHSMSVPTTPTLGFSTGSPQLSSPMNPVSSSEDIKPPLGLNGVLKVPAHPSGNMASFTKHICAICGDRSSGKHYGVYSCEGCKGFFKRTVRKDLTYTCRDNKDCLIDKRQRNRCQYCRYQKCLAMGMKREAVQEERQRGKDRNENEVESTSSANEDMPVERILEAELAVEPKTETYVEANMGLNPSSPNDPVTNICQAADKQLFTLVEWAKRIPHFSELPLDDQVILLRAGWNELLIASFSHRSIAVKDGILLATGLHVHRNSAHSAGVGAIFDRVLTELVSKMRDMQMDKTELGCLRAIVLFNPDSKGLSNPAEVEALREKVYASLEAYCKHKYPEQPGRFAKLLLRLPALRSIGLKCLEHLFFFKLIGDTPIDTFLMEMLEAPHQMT
UniProt P70536, sequence (whole entry, looked up): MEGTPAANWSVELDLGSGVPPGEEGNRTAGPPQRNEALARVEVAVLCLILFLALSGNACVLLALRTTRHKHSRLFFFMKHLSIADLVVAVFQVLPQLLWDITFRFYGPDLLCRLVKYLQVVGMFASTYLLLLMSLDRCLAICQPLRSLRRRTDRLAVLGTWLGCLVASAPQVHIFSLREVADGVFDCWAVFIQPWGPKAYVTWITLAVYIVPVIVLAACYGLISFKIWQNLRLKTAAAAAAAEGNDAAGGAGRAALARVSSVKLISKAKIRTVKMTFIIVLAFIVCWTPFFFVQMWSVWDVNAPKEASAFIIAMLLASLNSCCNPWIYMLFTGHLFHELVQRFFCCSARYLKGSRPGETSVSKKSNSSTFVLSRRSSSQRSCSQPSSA
UniProt Q16774, sequence (whole entry, looked up): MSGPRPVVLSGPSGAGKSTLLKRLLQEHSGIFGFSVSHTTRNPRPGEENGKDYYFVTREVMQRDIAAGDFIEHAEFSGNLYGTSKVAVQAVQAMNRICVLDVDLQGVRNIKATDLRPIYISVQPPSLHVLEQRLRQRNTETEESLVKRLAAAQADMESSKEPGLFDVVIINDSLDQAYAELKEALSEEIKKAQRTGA

The Kd of `C=CC(=O)N1CCN(c2nc(OC[C@@H]3CCCN3C)nc3c(F)c(-c4nc(N)cc(C)c4C(F)(F)F)c(Cl)cc23)[C@@H](C)C1` is reported as 0.745 µM (GTPase KRas, GDP-bound (KRAS, Homo sapiens, UniProt P01116); SPR).
`CC[C@@]1(O)C(=O)OCc2c1cc1n(c2=O)Cc2cc3ccccc3nc2-1` gave a Kd of over 2 µM (MYC G-quadruplex DNA; binding, fluorescence; pH 7.0, 20 °C, together with: K+ 100 mM).
The Kd of `CCCC(CCC)C(=O)O` is reported as over 3020 µM (ISOC2; inhibitor, competition pulldown; SW620 and MV4-11 lysate; 1 h).
The Kd of `CC1=CC(=O)c2ccccc2C1=O` is reported as 1.4 µM (pufM QA site; QA site binding; LDAO detergent solution; pH 7.8, 298 K, together with: 1 µM reaction centres).
The Kd of `COc1ccc([C@H]2Sc3ccccc3N(CCN(C)C)C(=O)[C@H]2OC(C)=O)cc1` is reported as 0.9 ± 0.6 µM (rod cGMP-gated channel Ictalurus punctatus; channel current, blocker, inside-out patch clamp; pH 7.6, +30 mV, 120 mM NaCl, low divalent, together with: 1 mM cGMP).
With `NS(=O)(=O)c1ccccc1` the Kd was 200 µM (CA3 (Homo sapiens, UniProt P07451); thermal shift; pH 7.0, 25 °C).
For `Cn1cc(-c2ccc(-c3cncc(Cl)c3N3CCC4(CCNC4=O)CC3)cc2)cn1`, “fold change in expression” read -2.29 (COLO 205; microarray, measured: CDKN2C; concentration not given, 2 h, gene set p18; baseline: untreated cells).
`Nc1ncnc2c1ncn2[C@@H]1O[C@H](COP(=O)(O)OP(=O)(O)O)[C@@H](O)[C@H]1O` has a Kd of 11 ± 2 µM (GUK1 (Homo sapiens, UniProt Q16774); binding, ITC; together with: ATPγS).
`O=C(CCCCCCNC(=O)c1cnc(N(c2ccccc2)c2ccccc2Cl)nc1)NO` has a Kd of 0.391 µM (ISOC2; inhibitor, competition pulldown; SW620 and MV4-11 lysate; 1 h).
`[Cl-].[K+]` gave a Kd of 11000 ± 600 µM (furin human; intrinsic fluorescence; pH 7.0).
The Kd of `O=C(NO)c1cnc(NC2(c3ccccc3)CC2)nc1` is reported as over 30.2 µM (ISOC2; inhibitor, competition pulldown; SW620 and MV4-11 lysate; 1 h).
`CC[C@H](C)[C@@H]1NC(=O)[C@H](Cc2ccc(O)cc2)NC(=O)[C@@H](N)CSSC[C@@H](C(=O)N2CCC[C@H]2C(=O)N[C@@H](CC(C)C)C(=O)NCC(N)=O)NC(=O)[C@H](CC(N)=O)NC(=O)[C@H](CCC(N)=O)NC1=O` has a Kd of 0.0026 µM (Oxytocin receptor (Rattus norvegicus, UniProt P70536); binding, kinetic k-1/k1; rat isolated mammary cells; 20 °C).
`CC(C)CCC[C@@H](C)[C@H]1CC[C@H]2[C@@H]3CCC4=CC(=O)CC[C@]4(C)[C@H]3CC[C@]12C` has a Kd of 0.04 ± 0.01 µM (CYP125 ancestral reconstruction; UV-Vis difference spectra; Morrison fit, fitted enzyme).
For `C/C=C1\NC(=O)[C@H]2CSSCC/C=C/[C@H](CC(=O)N[C@H](C(C)C)C(=O)N2)OC(=O)[C@H](C(C)C)NC1=O`, the Kd was over 30.2 µM (ISOC2; inhibitor, competition pulldown; SW620 and MV4-11 lysate; 1 h).
With `N[C@@H](Cc1c[nH]c2ccccc12)C(=O)O` the Kd was 3 ± 0.6 µM (Transcription attenuation protein MtrB (mtrB, Geobacillus stearothermophilus, UniProt Q9X6J6); circular dichroism titration; pH 8, 2 µM TRAP rings).
`O=C(CCCCCCC(=O)Nc1ccc([C@H]2O[C@@H](CSc3nc(-c4ccccc4)c(-c4ccccc4)o3)C[C@@H](c3ccc(CO)cc3)O2)cc1)NO` gave a Kd of over 30.2 µM (ISOC2; inhibitor, competition pulldown; SW620 and MV4-11 lysate; 1 h).
For `CCCCCCCCCCC1=C(N(C)C)C(=O)c2ccccc2C1=O`, the Kd was 0.3 µM (pufM QA site; QA site binding).
`COc1cc2c3c(n(CCCN4CCOCC4)c(=O)c2cc1OC)-c1cc2c(cc1C3=O)OCO2` gave a Kd of 0.2 µM (MYC G-quadruplex DNA; binding, fluorescence; pH 7.0, 20 °C, together with: K+ 100 mM).
`C=C1CC[C@H](O)C/C1=C/C=C1\CCC[C@]2(C)[C@@H]([C@H](C)CCCC(C)C)CC[C@@H]12` gave a Kd of 0.8 ± 0.2 µM (CYP125 ancestral reconstruction; UV-Vis difference spectra; Morrison fit, fixed enzyme).
The Kd of `CCCOc1cc2c(cc1C(=C1CC1)c1ccc(C(=O)O)cc1)C(C)(C)CCC2(C)C` is reported as 0.026 µM (RXRA (Homo sapiens, UniProt P19793); binding, tryptophan fluorescence titration).

For quick reference, copied from above:
The Kd of `CC1=CC(=O)c2ccccc2C1=O` is reported as 1.4 µM (pufM QA site; QA site binding; LDAO detergent solution; pH 7.8, 298 K, together with: 1 µM reaction centres).
The Kd of `COc1ccc([C@H]2Sc3ccccc3N(CCN(C)C)C(=O)[C@H]2OC(C)=O)cc1` is reported as 0.9 ± 0.6 µM (rod cGMP-gated channel Ictalurus punctatus; channel current, blocker, inside-out patch clamp; pH 7.6, +30 mV, 120 mM NaCl, low divalent, together with: 1 mM cGMP).
